Assay results collected from several papers.
Lines come from different studies, so protocols differ. Numbers after ± are the reported error.

| SMILES | assay | test system | setting | scale | measurement | result |
| --- | --- | --- | --- | --- | --- | --- |
| N=C(N)NCCC[C@@H]1NC(=O)[C@H](CCCCNC(=O)CC[C@H](NC(=O)[C@H](CCCCNC(=O)c2ccc(NN)nc2)NC(=O)c2ccc(NN)nc2)C(=O)NCCCC[C@@H]2NC(=O)[C@@H](Cc3ccccc3)NC(=O)[C@H](CC(=O)O)NC(=O)CNC(=O)[C@H](CCCNC(=N)N)NC2=O)NC(=O)[C@@H](Cc2ccccc2)NC(=O)[C@H](CC(=O)O)NC(=O)CNC1=O [technetium-99m labelled] | – | female athymic nude mice | intravenous, 1 h, U-87 MG glioma xenograft | baseline: tumour over blood | tissue ratio | 4.7 ± 1.22 |
| N=C(N)NCCC[C@@H]1NC(=O)[C@H](CCCCNC(=O)CNC(=O)CNC(=O)CNC(=O)CC[C@H](NC(=O)CCOCCOCCOCCOCCNC(=O)CC[C@H](NC(=O)CN2CCN(CC(=O)O)CCN(CC(=O)O)CCN(CC(=O)O)CC2)C(=O)NCCOCCOCCOCCOCCC(=O)N[C@@H](CCC(=O)NCC(=O)NCC(=O)NCC(=O)NCCCC[C@@H]2NC(=O)[C@@H](Cc3ccccc3)NC(=O)[C@H](CC(=O)O)NC(=O)CNC(=O)[C@H](CCCNC(=N)N)NC2=O)C(=O)NCC(=O)NCC(=O)NCC(=O)NCCCC[C@@H]2NC(=O)[C@@H](Cc3ccccc3)NC(=O)[C@H](CC(=O)O)NC(=O)CNC(=O)[C@H](CCCNC(=N)N)NC2=O)C(=O)NCC(=O)NCC(=O)NCC(=O)NCCCC[C@@H]2NC(=O)[C@@H](Cc3ccccc3)NC(=O)[C@H](CC(=O)O)NC(=O)CNC(=O)[C@H](CCCNC(=N)N)NC2=O)NC(=O)[C@@H](Cc2ccccc2)NC(=O)[C@H](CC(=O)O)NC(=O)CNC1=O [indium-111 labelled] | – | athymic nude mice, female, U-87 MG glioma xenograft, tumour and kidney | intravenous, 4 h | baseline: tumour over kidney | tumour to tissue ratio | 2.17 ± 0.48 |
| CC(C)C[C@H](NC(=O)[C@H](C)N)C(=O)N[C@@H](CC(C)C)C(=O)N[C@@H](C)C(=O)N[C@@H](CC(N)=O)C(=O)N[C@@H](Cc1c[nH]cn1)C(=O)N[C@@H](CCC(=O)O)C(=O)N[C@@H](CCC(=O)O)C(=O)N[C@@H](CC(C)C)C(=O)N[C@@H](Cc1ccccc1)C(=O)N[C@@H](CCC(N)=O)C(=O)N[C@H](C(=O)NCC(=O)NCC(=O)NCC(=O)N[C@@H](CO)C(=O)N[C@@H](CSC1CC(=O)N(CCNC(=O)CCCCCN2C(=CC=C3CCCC(C=CC4=[N+](CCCCS(=O)(=O)[O-])c5ccc(S(=O)(=O)O)cc5C4(C)C)=C3Oc3ccc(S(=O)(=O)O)cc3)C(C)(C)c3cc(S(=O)(=O)O)ccc32)C1=O)C(=O)O)[C@@H](C)O (some centres unmarked) | photoacoustic imaging | mouse Hep3B orthotopic xenograft | intravenous, 150 µM | – | time to signal clearance | ~24 h |
| CSCC[C@H](NC(=O)[C@H](CC(C)C)NC(=O)[C@H](Cc1c[nH]cn1)NC(=O)CNC(=O)[C@@H](NC(=O)[C@H](C)NC(=O)[C@H](Cc1c[nH]c2ccccc12)NC(=O)[C@H](CCC(N)=O)NC(=O)CCCCCNC(=O)CNC(=O)CNC(=O)CNC(=O)CSC(C)=O)C(C)C)C(N)=O [technetium-99m labelled] | – | Swiss mouse, pancreas | intravenous, 18.5 MBq, 240 min | – | tissue uptake | 0.35 ± 0.05 %ID/g |
| N=C(N)NCCC[C@@H]1NC(=O)[C@H](CCCCNC(=O)CCOCCOCCOCCOCCNC(=O)CN2CCN(CC(=O)O)CCN(CC(=O)O)CCN(CC(=O)O)CC2)NC(=O)[C@@H](Cc2ccccc2)NC(=O)[C@H](CC(=O)O)NC(=O)CNC1=O [indium-111 labelled] | – | athymic nude mice, female, U-87 MG glioma xenograft, tumour and kidney | intravenous, 72 h | baseline: tumour over kidney | tumour to tissue ratio | 0.67 ± 0.15 |
| CCCC[C@H](NC(=O)CNC(=O)[C@H](CO)NC(=O)CNC(=O)c1ccc(NN)nc1)C(=O)N[C@H]1CC(=O)NCCCC[C@@H](C(N)=O)NC(=O)[C@H](Cc2c[nH]c3ccccc23)NC(=O)[C@H](CCCNC(=N)N)NC(=O)[C@@H](Cc2ccccc2)NC(=O)[C@H](Cc2c[nH]cn2)NC1=O [technetium-99m labelled] | – | C57 mouse, B16/F1 melanoma | 2 h | baseline: tumour over liver | uptake ratio | 32.3 |
| N=C(N)NCCC[C@@H]1NC(=O)[C@H](CCCCNC(=O)CCOCCOCCOCCOCCNC(=O)CC[C@H](NC(=O)CCOCCOCCOCCOCCNC(=O)CC[C@H](NC(=O)CN2CCN(CC(=O)O)CCN(CC(=O)O)CCN(CC(=O)O)CC2)C(=O)NCCOCCOCCOCCOCCC(=O)N[C@@H](CCC(=O)NCCOCCOCCOCCOCCC(=O)NCCCC[C@@H]2NC(=O)[C@@H](Cc3ccccc3)NC(=O)[C@H](CC(=O)O)NC(=O)CNC(=O)[C@H](CCCNC(=N)N)NC2=O)C(=O)NCCOCCOCCOCCOCCC(=O)NCCCC[C@@H]2NC(=O)[C@@H](Cc3ccccc3)NC(=O)[C@H](CC(=O)O)NC(=O)CNC(=O)[C@H](CCCNC(=N)N)NC2=O)C(=O)NCCOCCOCCOCCOCCC(=O)NCCCC[C@@H]2NC(=O)[C@@H](Cc3ccccc3)NC(=O)[C@H](CC(=O)O)NC(=O)CNC(=O)[C@H](CCCNC(=N)N)NC2=O)NC(=O)[C@@H](Cc2ccccc2)NC(=O)[C@H](CC(=O)O)NC(=O)CNC1=O [indium-111 labelled] | – | female athymic nude mice, intestine | intravenous, 3 µCi, 72 h, U-87 MG glioma xenograft | – | tissue uptake | 5.74 ± 1.47 %ID/g |
| CCCC[C@H](NC(=O)CNC(=O)CNC(=O)c1ccc(NN)nc1)C(=O)N[C@H]1CC(=O)NCCCC[C@@H](C(N)=O)NC(=O)[C@H](Cc2c[nH]c3ccccc23)NC(=O)[C@H](CCCNC(=N)N)NC(=O)[C@@H](Cc2ccccc2)NC(=O)[C@H](Cc2c[nH]cn2)NC1=O [technetium-99m labelled] | – | C57 mouse, B16/F1 melanoma, heart | 2 h, added: NDP-MSH 6.07 nmol blockade | – | uptake | 0.1 ± 0.05 %ID/g |
| CC(C)C[C@H](NC(=O)[C@@H]1CCCN1C(=O)[C@H](CCCCN)NC(=O)[C@@H](N)CO)C(=O)N1CCC[C@H]1C(=O)N[C@@H](CCC(=O)O)C(=O)N[C@H](C(=O)N[C@H](C(=O)N[C@@H](CC(=O)O)C(=O)N[C@@H](CCC(=O)O)C(=O)N[C@@H](Cc1ccc(O)cc1)C(=O)N[C@@H](Cc1cn(CCOCCOCCOCCNC(=O)CCc2ccc(O)c(CN(CCN(CC(=O)O)Cc3cc(CCC(=O)NCCCC[C@H](NC(=O)N[C@@H](CCC(=O)O)C(=O)O)C(=O)O)ccc3O)CC(=O)O)c2)nn1)C(=O)O)[C@@H](C)O)C(C)C [gallium-68 labelled] | PET | NMRI nu/nu mouse, LNCaP xenograft | – | – | time to maximum tumour uptake | 2 h |
| CSCC[C@H](NC(=O)[C@H](CC(C)C)NC(=O)[C@H](Cc1c[nH]cn1)NC(=O)CNC(=O)[C@@H](NC(=O)[C@H](C)NC(=O)[C@H](Cc1c[nH]c2ccccc12)NC(=O)[C@H](CCC(N)=O)NC(=O)CCCCCNC(=O)CN1CCN(CC(=O)O)CCN(CC(=O)O)CC1)C(C)C)C(N)=O [gallium-68 labelled] | microPET imaging | nude mouse PC-3 xenograft, PC-3 tumour | intravenous, 3.7 MBq, 60 min | – | mean tumour uptake | 2.04 ± 0.34 %ID/g |
| N=C(N)NCCC[C@@H]1NC(=O)[C@H](CCCCNC(=O)CC[C@H](NC(=O)CCOCCOCCOCCOCCNC(=O)CC[C@H](NC(=O)CN2CCN(CC(=O)O)CCN(CC(=O)O)CCN(CC(=O)O)CC2)C(=O)NCCOCCOCCOCCOCCC(=O)N[C@@H](CCC(=O)NCCCC[C@@H]2NC(=O)[C@@H](Cc3ccccc3)NC(=O)[C@H](CC(=O)O)NC(=O)CNC(=O)[C@H](CCCNC(=N)N)NC2=O)C(=O)NCCCC[C@@H]2NC(=O)[C@@H](Cc3ccccc3)NC(=O)[C@H](CC(=O)O)NC(=O)CNC(=O)[C@H](CCCNC(=N)N)NC2=O)C(=O)NCCCC[C@@H]2NC(=O)[C@@H](Cc3ccccc3)NC(=O)[C@H](CC(=O)O)NC(=O)CNC(=O)[C@H](CCCNC(=N)N)NC2=O)NC(=O)[C@@H](Cc2ccccc2)NC(=O)[C@H](CC(=O)O)NC(=O)CNC1=O [indium-111 labelled] | planar imaging | athymic nude mouse, U-87 MG xenograft, tumour | intravenous | – | retention half-life | > 30 h |
| CSCC[C@H](NC(=O)[C@H](CC(C)C)NC(=O)[C@H](Cc1c[nH]cn1)NC(=O)CNC(=O)[C@@H](NC(=O)[C@H](C)NC(=O)[C@H](Cc1c[nH]c2ccccc12)NC(=O)[C@H](CCC(N)=O)NC(=O)[C@H](CC(N)=O)NC(=O)CNC(=O)[C@H](Cc1ccc(O)cc1)NC(=O)[C@H](CCCNC(=N)N)NC(=O)[C@H](CCC(N)=O)NC(=O)[C@@H]1CCCN1C(=O)CN1CCN(CC(=O)O)CCN(CC(=O)O)CCN(CC(=O)O)CC1)C(C)C)C(N)=O [indium-111 labelled] | radio-HPLC | Swiss nu/nu mice, blood | intravenous, 1 nmol, 5 min | – | intact peptide | 20.6% |
| COc1cc(OC)cc(C2=C3c4ccccc4C(c4ccc(NC(=S)S[C@@H]5O[C@H](CO)[C@@H](O)[C@H](O)[C@H]5O)cc4)=[N+]3[B-](F)(F)n3c2c2ccccc2c3-c2ccc(NC(=S)NCCOCCOCCOCCC(=O)N[C@@H](CC(C)C)C(=O)N[C@@H](C)C(=O)N[C@@H](CCCNC(=N)N)C(=O)N[C@@H](CC(C)C)C(=O)N[C@@H](CC(C)C)C(=O)N[C@H](C(N)=O)[C@@H](C)O)cc2)c1 | – | DMSO | – | – | emission maximum | 696 nm |
| CCCC[C@H](NC(=O)CCCCCCCNC(=O)c1ccc(NN)nc1)C(=O)N[C@H]1CC(=O)NCCCC[C@@H](C(N)=O)NC(=O)[C@H](Cc2c[nH]c3ccccc23)NC(=O)[C@H](CCCNC(=N)N)NC(=O)[C@@H](Cc2ccccc2)NC(=O)[C@H](Cc2c[nH]cn2)NC1=O [technetium-99m labelled] | – | C57 mouse, B16/F1 melanoma, spleen | intravenous, 4 h | – | uptake | 0.32 ± 0.13 %ID/g |

Excerpt of the above:
| SMILES | assay | test system | setting | scale | measurement | result |
| --- | --- | --- | --- | --- | --- | --- |
| CCCC[C@H](NC(=O)CNC(=O)[C@H](CO)NC(=O)CNC(=O)c1ccc(NN)nc1)C(=O)N[C@H]1CC(=O)NCCCC[C@@H](C(N)=O)NC(=O)[C@H](Cc2c[nH]c3ccccc23)NC(=O)[C@H](CCCNC(=N)N)NC(=O)[C@@H](Cc2ccccc2)NC(=O)[C@H](Cc2c[nH]cn2)NC1=O [technetium-99m labelled] | – | C57 mouse, B16/F1 melanoma | 2 h | baseline: tumour over liver | uptake ratio | 32.3 |
